Published values of several laboratories.
Each line is one published result; not all experiments were run side by side. Several values in a cell are separate wells, animals, samples, runs or records. ± marks the error that the study gave.
Genome polyprotein NS3 helicase domain: Genome polyprotein, NS3 helicase domain (Hepatitis C virus genotype 1b, UniProt Q9WMX2)
WD repeat-containing protein 91 WD40 domain, residues 392–747: WD repeat-containing protein 91, WD40 domain, residues 392–747 (Homo sapiens, UniProt A4D1P6)
UniProt A4D1P6, sequence (whole entry, looked up): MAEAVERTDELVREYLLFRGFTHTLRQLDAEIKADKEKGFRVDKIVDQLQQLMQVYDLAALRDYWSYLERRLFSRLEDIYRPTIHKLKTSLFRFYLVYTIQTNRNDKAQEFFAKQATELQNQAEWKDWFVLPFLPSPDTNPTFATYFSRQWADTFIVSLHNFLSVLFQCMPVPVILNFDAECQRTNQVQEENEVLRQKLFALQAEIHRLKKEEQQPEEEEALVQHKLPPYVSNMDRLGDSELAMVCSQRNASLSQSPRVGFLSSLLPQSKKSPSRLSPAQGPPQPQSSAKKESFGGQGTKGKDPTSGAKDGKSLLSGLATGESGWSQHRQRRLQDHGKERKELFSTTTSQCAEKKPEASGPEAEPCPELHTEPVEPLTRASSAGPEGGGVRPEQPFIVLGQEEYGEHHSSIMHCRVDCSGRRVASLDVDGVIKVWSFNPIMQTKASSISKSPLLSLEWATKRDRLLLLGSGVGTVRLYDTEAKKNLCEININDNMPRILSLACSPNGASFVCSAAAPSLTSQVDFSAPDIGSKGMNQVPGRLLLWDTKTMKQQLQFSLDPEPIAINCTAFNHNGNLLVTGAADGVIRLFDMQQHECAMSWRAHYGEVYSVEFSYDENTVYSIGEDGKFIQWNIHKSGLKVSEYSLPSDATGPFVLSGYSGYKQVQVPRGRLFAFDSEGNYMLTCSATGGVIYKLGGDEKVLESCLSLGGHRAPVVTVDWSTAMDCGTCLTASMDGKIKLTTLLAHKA
CALM1 Ca2+-bound N-lobe: Calmodulin-1, Ca2+-bound N-lobe (CALM1, Homo sapiens, UniProt P0DP23)
ESR1: Estrogen receptor (ESR1, Homo sapiens, UniProt P03372)
UniProt P31947, sequence (whole entry, looked up): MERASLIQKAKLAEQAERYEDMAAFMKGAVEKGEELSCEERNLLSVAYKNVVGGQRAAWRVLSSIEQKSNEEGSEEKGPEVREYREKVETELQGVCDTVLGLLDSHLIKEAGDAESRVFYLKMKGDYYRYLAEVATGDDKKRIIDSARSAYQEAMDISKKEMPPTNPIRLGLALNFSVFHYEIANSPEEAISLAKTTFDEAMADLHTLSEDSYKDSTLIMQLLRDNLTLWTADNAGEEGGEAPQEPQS
UniProt Q16774, sequence (whole entry, looked up): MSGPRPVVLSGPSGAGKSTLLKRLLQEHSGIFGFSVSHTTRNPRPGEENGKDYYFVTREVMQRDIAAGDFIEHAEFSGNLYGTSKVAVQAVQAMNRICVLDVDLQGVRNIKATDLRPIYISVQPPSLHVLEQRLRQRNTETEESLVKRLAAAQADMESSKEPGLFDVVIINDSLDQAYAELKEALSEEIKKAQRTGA
UniProt P51575, sequence (whole entry, looked up): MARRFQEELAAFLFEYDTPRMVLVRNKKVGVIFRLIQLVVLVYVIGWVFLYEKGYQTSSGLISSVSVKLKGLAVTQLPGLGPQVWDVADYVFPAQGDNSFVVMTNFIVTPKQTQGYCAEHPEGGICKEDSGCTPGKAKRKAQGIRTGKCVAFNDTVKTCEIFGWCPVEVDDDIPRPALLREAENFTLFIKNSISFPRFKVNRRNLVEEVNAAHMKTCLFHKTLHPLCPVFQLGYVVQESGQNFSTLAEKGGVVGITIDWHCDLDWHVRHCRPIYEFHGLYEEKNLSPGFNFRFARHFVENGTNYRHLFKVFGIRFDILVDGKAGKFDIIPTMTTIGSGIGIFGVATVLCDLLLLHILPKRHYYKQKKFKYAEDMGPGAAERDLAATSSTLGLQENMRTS
UniProt Q9H3Y6, sequence (whole entry, looked up): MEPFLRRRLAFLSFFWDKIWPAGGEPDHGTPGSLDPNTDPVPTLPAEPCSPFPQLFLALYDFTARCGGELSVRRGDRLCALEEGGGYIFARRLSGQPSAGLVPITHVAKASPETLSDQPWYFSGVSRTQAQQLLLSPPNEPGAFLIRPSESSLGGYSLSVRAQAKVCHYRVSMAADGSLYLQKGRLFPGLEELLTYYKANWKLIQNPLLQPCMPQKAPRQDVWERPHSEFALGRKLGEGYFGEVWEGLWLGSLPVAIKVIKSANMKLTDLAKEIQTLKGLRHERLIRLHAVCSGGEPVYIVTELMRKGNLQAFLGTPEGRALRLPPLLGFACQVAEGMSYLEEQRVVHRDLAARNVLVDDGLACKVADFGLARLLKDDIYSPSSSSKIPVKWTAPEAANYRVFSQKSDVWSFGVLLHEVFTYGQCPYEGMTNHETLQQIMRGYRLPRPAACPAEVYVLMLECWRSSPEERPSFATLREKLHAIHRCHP

With CC(C)(C)NCC(O)c1ccc(O)c(CO)c1.CC(C)(C)NCC(O)c1ccc(O)c(CO)c1.O=S(=O)(O)O (centres unmarked) the inhibition was 0% (Genome polyprotein NS3 helicase domain; DNA binding, inhibitor; hepatitis C virus; 100 µM, together with: Cy5-dT15 DNA).
With N#CC1CCN(C(=O)c2ccc(C=Cc3ccc4ccccc4n3)cc2)CC1 the binding was 7% and 9% (WD repeat-containing protein 91 WD40 domain, residues 392–747; SPR; 45 µM).
Under “thermal stability ratio”, O=C(COP(=O)(O)O)[C@@H](O)[C@H](O)[C@H](O)COP(=O)(O)O is recorded as 0.119 and 0.716 and 0.764 (14-3-3 protein sigma (SFN, Homo sapiens, UniProt P31947); thermal proteome profiling; HepG2 cell lysate; concentration not given, 57 over 37 °C; reference: compound over control).
CCCn1c(=O)c2[nH]c(C3CCCC3)nc2n(CCC)c1=O has an inhibition of 0% (Genome polyprotein NS3 helicase domain; DNA binding, inhibitor; hepatitis C virus; 100 µM, together with: Cy5-dT15 DNA).
For N#Cc1cccc2c1CC[C@H]2NC(=O)c1ccc(Nc2ncnc3ccccc23)cc1, the SPR response was 38.6 RU and 30.7 RU (WD repeat-containing protein 91 WD40 domain, residues 392–747; binding, SPR single-concentration screen; 45 µM).
N=C(NC1CCN(c2ncnc3c2nc(-c2ccccc2Cl)n3-c2ccc(Cl)cc2)CC1)c1ccc(F)cc1 gave a selectivity ratio of greater than 7 (Cannabinoid receptor 1 (CNR1, Homo sapiens, UniProt P21554); binding, [3H]CP55940 displacement; reference: Ki CB2 over Ki CB1).
For COc1cc(SC)ccc1C(=O)N1CCC(Cc2ccccc2)CC1, the inhibition was 1% (Genome polyprotein NS3 helicase domain; DNA binding, inhibitor; hepatitis C virus; 100 µM, together with: Cy5-dT15 DNA).
With N#CC1CCN(C(=O)c2ccc(Cn3cc(-c4ccc5c(c4)NCCO5)nn3)cc2)CC1 the SPR response was -9.2 RU and -18 RU (WD repeat-containing protein 91 WD40 domain, residues 392–747; binding, SPR single-concentration screen; 45 µM).
O=C(CCCCCCC(=O)Nc1ccccc1)NO has a TΔS of 5.2 kcal/mol (Histone deacetylase 8 (HDAC8, Homo sapiens, UniProt Q9BY41); ITC; phosphate buffer; pH 7.5).
The activation concentration of O=P(O)(O)O[C@H]1[C@H](OP(=O)(O)O)[C@@H](OP(=O)(O)O)[C@H](OP(=O)(O)O)[C@@H](OP(=O)(O)O)[C@H]1OP(=O)(O)O is reported as 10 nM (Histone deacetylase 3 (HDAC3, Homo sapiens, UniProt O15379); deacetylase activity, activator, fluorogenic).
CC[C@H](C)[C@H](NC(=O)[C@H](CCCCN)NC(=O)CNC(=O)[C@@H](NC(=O)[C@@H](NC(=O)[C@H](CCSC)NC(=O)[C@H](Cc1c[nH]cn1)NC(=O)CN)[C@@H](C)O)C(C)C)C(=O)N[C@@H](Cc1ccc(O)cc1)C(=O)N[C@@H](C)C(=O)N[C@@H](C)C(=O)N[C@@H](CCSC)C(=O)N[C@@H](CCSC)C(=O)N[C@H](C(=O)N[C@@H](CCSC)C(=O)N[C@@H](CCC(=O)O)C(=O)N[C@@H](Cc1ccc(O)cc1)C(=O)N[C@@H](C)C(=O)N[C@@H](CCCNC(=N)N)C(=O)N[C@@H](CCC(N)=O)C(=O)N[C@@H](CO)C(=O)N[C@@H](CCCCN)C(=O)N[C@@H](C)C(=O)N[C@@H](CCCCN)C(=O)N[C@@H](CCCCN)C(=O)N[C@@H](CC(C)C)C(=O)N[C@@H](CCC(N)=O)C(=O)N[C@@H](C)C(=O)N[C@@H](CCSC)C(=O)N[C@@H](CCCNC(=N)N)C(=O)O)[C@@H](C)CC gave a ΔΔG of 0.46 (CALM1 Ca2+-bound N-lobe; binding, isothermal titration calorimetry; N-lobe, CaV2.1 IQ domain, unit not given, together with: Ca2+; reference: wild-type IQ domain).
The ΔTm of CN1CCC2(CC1)NC(=O)c1c(c3ccc(Cl)c(Cl)c3n1C)C2C#N (racemic) is reported as -1 °C (Serine/threonine-protein kinase MRCK gamma (CDC42BPG, Homo sapiens, UniProt Q6DT37); thermal shift; 10 µM, 2 µM protein; higher = stronger binding).
N#Cc1ccc2[nH]cc(CCCCN3CCN(c4ccc5oc(C(N)=O)cc5c4)CC3)c2c1 has a Hill coefficient of 1.31 ± 0.15 (Sodium-dependent serotonin transporter (SLC6A4, Homo sapiens, UniProt P31645, Y95F); [3H]5-HT uptake, inhibitor; COS-7).
The remaining activity of C=CC(=O)N1CCC[C@@H](n2nc(-c3ccc(Oc4ccccc4)cc3)c3c(N)ncnc32)C1 is reported as 87.2% (Tyrosine-protein kinase Srms (SRMS, Homo sapiens, UniProt Q9H3Y6); 1 µM).
The inhibition of CC(C)COCC(CN(Cc1ccccc1)c1ccccc1)N1CCCC1 (centres unmarked) is reported as 0% (Genome polyprotein NS3 helicase domain; DNA binding, inhibitor; hepatitis C virus; 100 µM, together with: Cy5-dT15 DNA).
For N[C@@H](Cc1c[nH]cn1)C(=O)O, the product formation was 0.09 µM (N-alpha-acetyltransferase 80 (NAA80, Homo sapiens, UniProt Q93015); substrate, DTNB; 2 mM, 30 min, 37 °C, together with: acetyl-CoA 500 µM).
The delta Tm of O=C(O)C(O)c1ccccc1 (centres unmarked) is reported as 9.4 °C (Uncharacterized protein (Chromohalobacter israelensis, UniProt Q1QT90); binder, thermal shift).
Cn1c(=O)c2[nH]cnc2n(C)c1=O has a potentiation of 101% (Glutamate receptor 2 (Homo sapiens, UniProt P42262); ion current, positive allosteric modulator, SyncroPatch patch clamp; HEK293; 3 µM).
[Cl-].[K+] gave a reaction velocity of 0.04 µM/s and 0.0309 µM/s and 0.0286 µM/s (GUK1 (Homo sapiens, UniProt Q16774); enzyme activity, NADH-coupled; 1.875 mM).
CCc1cccc(N(C)C(N)=Nc2cccc3ccccc23)c1 has an inhibition of 1% (Genome polyprotein NS3 helicase domain; DNA binding, inhibitor; hepatitis C virus; 100 µM, together with: Cy5-dT15 DNA).
CC1CCCN(C(=O)c2cc3ncccn3n2)C1 (centres unmarked) has a fold enrichment of 1.15 (Transducin-like enhancer protein 4 (TLE4, Homo sapiens, UniProt Q04727); binding, affinity selection mass spectrometry; reference: other proteins in batch).
Nc1ncnc2c1ncn2[C@@H]1O[C@H](COP(=O)(O)CP(=O)(O)OP(=O)(O)O)[C@@H](O)[C@H]1O has a calcium influx of 75% and 84.5% and 90.3% and 97.4% (P2X purinoceptor 1 (P2RX1, Homo sapiens, UniProt P51575); calcium influx; 3.16 µM; reference: ionomycin response).
With O=c1cc(-c2ccccc2)oc2ccc(O)cc12 the selectivity ratio was 0.498 (ESR1; array formation; PRL-HeLa; reference: EC50 ERβ over EC50 ERα).
For O=C(O)C1CCCNC1 (centres unmarked), “normalised MST signal” read 0.218 (Sodium- and chloride-dependent taurine transporter (SLC6A6, Homo sapiens, UniProt P31641, Y138A); binding, microscale thermophoresis; 3.91 µM, room temperature, together with: 50 nM labelled protein; higher = more binding).
For CCCCCCSC[C@H]1CN(Cc2c[nH]c3c(N)ncnc23)C[C@@H]1O, the k3 was 1.3 ± 0.6 min⁻¹ (Aminodeoxyfutalosine nucleosidase (Helicobacter pylori, UniProt Q9ZMY2); forward isomerization rate).
For O=c1c(O[C@@H]2O[C@H](CO)[C@@H](O)[C@H](O)[C@H]2O)c(-c2ccc(O)c(O)c2)oc2cc(O[C@@H]3O[C@H](CO[C@@H]4O[C@H](CO)[C@@H](O)[C@H](O)[C@H]4O)[C@@H](O)[C@H](O)[C@H]3O)cc(O)c12, the selectivity ratio was 0.723 (ESR1; array formation; PRL-HeLa; reference: EC50 ERβ over EC50 ERα).
For CC[C@H](C)[C@H](NC(=O)[C@H](CCSC)NC(=O)[C@H](CCSC)NC(=O)[C@H](C)NC(=O)[C@H](C)NC(=O)[C@H](Cc1ccc(O)cc1)NC(=O)[C@H](C)NC(=O)[C@H](CCCCN)NC(=O)CNC(=O)[C@@H](NC(=O)[C@@H](NC(=O)[C@H](CCSC)NC(=O)[C@H](Cc1c[nH]cn1)NC(=O)CN)[C@@H](C)O)C(C)C)C(=O)N[C@@H](CCSC)C(=O)N[C@@H](CCC(=O)O)C(=O)N[C@@H](Cc1ccc(O)cc1)C(=O)N[C@@H](Cc1ccc(O)cc1)C(=O)N[C@@H](CCCNC(=N)N)C(=O)N[C@@H](CCC(N)=O)C(=O)N[C@@H](CO)C(=O)N[C@@H](CCCCN)C(=O)N[C@@H](C)C(=O)N[C@@H](CCCCN)C(=O)N[C@@H](CCCCN)C(=O)N[C@@H](CC(C)C)C(=O)N[C@@H](CCC(N)=O)C(=O)N[C@@H](C)C(=O)N[C@@H](CCSC)C(=O)N[C@@H](CCCNC(=N)N)C(=O)O, the stoichiometry was 0.93 ± 0.03 (CALM1 Ca2+-bound N-lobe; binding, isothermal titration calorimetry; pH 7.4, 15 °C, N-lobe, CaV2.1 IQ domain, together with: Ca2+).
O=c1nc(SCc2cc(F)cc(C(F)(F)F)c2)nc(SCc2csc3ccc(Cl)cc23)[nH]1 — result for “mean decatenated DNA”: 0% (DNA topoisomerase 2-alpha (TOP2A, Homo sapiens, UniProt P11388); decatenation; 0.49 µM).
CCCCCCCCCCCCCCCCc1ccc([C@H]2CC[C@H]([N+](C)(C)CCC)CC2)cc1.[I-] has a Ki/Km ratio of 2.7 (Sphingosine kinase 1 (SPHK1, Homo sapiens, UniProt Q9NYA1); inhibitor, radiometric flash-plate; cell lysate; together with: sphingosine 10 µM).

For quick reference, copied from above:
Nc1ncnc2c1ncn2[C@@H]1O[C@H](COP(=O)(O)CP(=O)(O)OP(=O)(O)O)[C@@H](O)[C@H]1O has a calcium influx of 75% and 84.5% and 90.3% and 97.4% (P2X purinoceptor 1 (P2RX1, Homo sapiens, UniProt P51575); calcium influx; 3.16 µM; reference: ionomycin response).
With O=c1cc(-c2ccccc2)oc2ccc(O)cc12 the selectivity ratio was 0.498 (ESR1; array formation; PRL-HeLa; reference: EC50 ERβ over EC50 ERα).
For O=C(O)C1CCCNC1 (centres unmarked), “normalised MST signal” read 0.218 (Sodium- and chloride-dependent taurine transporter (SLC6A6, Homo sapiens, UniProt P31641, Y138A); binding, microscale thermophoresis; 3.91 µM, room temperature, together with: 50 nM labelled protein; higher = more binding).
